{"data": "Measurements pooled from the literature", "note": "Parts stem from different laboratories: compare values within a part only."}
{"data": "Series 1", "target": "Histone acetyltransferase KAT6A, both winged helices, GST fusion (KAT6A, Homo sapiens, UniProt Q92794, residues 1-181)", "method": "protein binding microarray", "form": "double-stranded DNA, one strand shown", "medium": "in vitro", "concentration": "not given", "notes": "8-mer, flanks averaged, mean of 2 arrays, mostly near background", "relative to": "not given", "reading": "higher = stronger binding", "Construct (chain)": "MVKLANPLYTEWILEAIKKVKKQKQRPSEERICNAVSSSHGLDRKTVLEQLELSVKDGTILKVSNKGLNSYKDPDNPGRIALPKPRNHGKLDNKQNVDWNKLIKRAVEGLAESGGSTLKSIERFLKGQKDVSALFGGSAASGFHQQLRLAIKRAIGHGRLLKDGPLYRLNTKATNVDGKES"}
{"Oligonucleotide": "AAGTAGGC", "E-score": -0.117}
{"Oligonucleotide": "ACGCGGAA", "E-score": 0.273}
{"Oligonucleotide": "AGGACACA", "E-score": -0.0744}
{"Oligonucleotide": "GGTCACAC", "E-score": -0.0143}
{"data": "Series 2", "target": "Sal-like protein 4, full length isoform A (SALL4, Homo sapiens, UniProt Q9UJQ4, residues 1-1053)", "method": "universal PBM", "form": "double-stranded DNA, one strand shown", "medium": "in vitro", "concentration": "600 nM", "notes": "8-mer, flanks averaged, mean of replicates", "reading": "higher = stronger binding", "chain of UniProt Q9UJQ4 (whole entry, looked up)": "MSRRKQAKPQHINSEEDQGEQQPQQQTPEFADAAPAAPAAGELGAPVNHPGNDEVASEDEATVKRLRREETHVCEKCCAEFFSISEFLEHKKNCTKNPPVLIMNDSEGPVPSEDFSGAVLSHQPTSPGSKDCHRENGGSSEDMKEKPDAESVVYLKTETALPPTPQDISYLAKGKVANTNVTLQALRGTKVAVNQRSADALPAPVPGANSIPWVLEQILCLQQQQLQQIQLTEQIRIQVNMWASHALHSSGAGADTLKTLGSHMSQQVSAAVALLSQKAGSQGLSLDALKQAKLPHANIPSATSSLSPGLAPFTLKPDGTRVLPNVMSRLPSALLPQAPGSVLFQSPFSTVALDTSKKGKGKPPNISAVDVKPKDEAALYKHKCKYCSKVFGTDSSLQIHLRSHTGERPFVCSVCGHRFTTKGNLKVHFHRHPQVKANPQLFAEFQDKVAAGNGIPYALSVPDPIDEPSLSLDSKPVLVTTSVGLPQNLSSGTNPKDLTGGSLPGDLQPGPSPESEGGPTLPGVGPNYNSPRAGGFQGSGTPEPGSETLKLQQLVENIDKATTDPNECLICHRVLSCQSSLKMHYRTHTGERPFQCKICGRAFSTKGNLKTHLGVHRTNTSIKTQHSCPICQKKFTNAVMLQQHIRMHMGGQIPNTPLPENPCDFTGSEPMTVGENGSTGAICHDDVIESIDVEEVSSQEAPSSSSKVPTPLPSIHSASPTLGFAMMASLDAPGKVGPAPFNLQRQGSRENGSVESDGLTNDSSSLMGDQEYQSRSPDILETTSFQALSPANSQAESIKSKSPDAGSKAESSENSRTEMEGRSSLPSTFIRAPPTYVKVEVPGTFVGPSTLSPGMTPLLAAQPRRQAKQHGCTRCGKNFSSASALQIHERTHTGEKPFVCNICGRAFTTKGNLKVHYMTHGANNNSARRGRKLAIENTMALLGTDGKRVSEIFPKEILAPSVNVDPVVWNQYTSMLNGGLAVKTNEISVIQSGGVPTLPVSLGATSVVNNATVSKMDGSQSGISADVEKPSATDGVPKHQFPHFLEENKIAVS"}
{"Oligonucleotide": "CCTGCTCC", "E-score": -0.205}
{"Oligonucleotide": "AGTCTAGG", "E-score": 0.0333}
{"Oligonucleotide": "ACTTTTAG", "E-score": 0.109}
{"Oligonucleotide": "AGCCGGTA", "E-score": -0.29}
{"Oligonucleotide": "GGAACTAA", "E-score": 0.00392}
{"data": "Series 3", "target": "Fragile X messenger ribonucleoprotein 1, C-terminal low-complexity region (Fmr1, Mus musculus, UniProt P35922)", "method": "RNA Bind-n-Seq", "form": "RNA", "medium": "in vitro", "concentration": "200 nM", "notes": "whole 134-nt RNA, ends assumed", "with": "150 mM KCl", "relative to": "input library", "reading": "higher = stronger binding", "all sequences stand within": "GGGAGUUCUACAGUCCGACGAUC … UGGAAUUCUCGGGUGUCAAGG"}
{"Oligonucleotide": "CACAGACAACACGCACCCAUACAGACACAGAGGGAAGGGGUUGGGAUGGGGACAGGGUGCACAGCAGGGCGGGGUAGGACCCCAGCCCCU", "log2 enrichment": 1.41}
{"Oligonucleotide": "ACCAUGCAGAUGGGCAUCUUUGGGAAGUGGGGCAAGGGGGGGAUAGGGAGGGGGGUAACACUUUGGGAACAGGUGGUCCCAGGUCGUUUC", "log2 enrichment": 0.698}
{"Oligonucleotide": "CACAGACGACACGCACCCACACAGACACAGAGGGAAGGGGUUGGGAUGGGGACAGGGUGCACAGCAGGGCGGGGUAGGACCCCAGCCCCU", "log2 enrichment": 1.29}
{"Oligonucleotide": "CUCAAGUCCUGUGCUACACAUCGUAUGUACCGAAUCGGGGAAGGGAAGGAAGGGAAAGUAUUAUGUUACGCCGUUCGGAUCUGCACUUCC", "log2 enrichment": 0.192}
{"Oligonucleotide": "UGGGAGGUGGAUUUUGUUUAUUUUUUUAGCUCAUGUCCAGGGGUGGGAAUUUUUUUUUAAUAUGUGUCAUGAAUAAAGUUGUUUUUGAAA", "log2 enrichment": 0.185}
{"data": "Other studies, line by line"}
{"Substance": "PhoQ, residues 284 288 289 292 302 303 TTCLQL", "target": "PhoP, residues 12 14 15 18 19 NHFRA (Escherichia coli, UniProt P23836)", "assay": "Sort-seq, measured: YFP reporter", "system": "E. coli", "conditions": "PhoQ-PhoP variant library, with: 10 µM Mg2+", "how to read": "relative to: high Mg2+ state, higher = stronger signaling", "quantity": "fold induction", "value": 0.882}
{"note": "A few entries again (series 3):"}
{"Oligonucleotide": "UGGGAGGUGGAUUUUGUUUAUUUUUUUAGCUCAUGUCCAGGGGUGGGAAUUUUUUUUUAAUAUGUGUCAUGAAUAAAGUUGUUUUUGAAA", "log2 enrichment": 0.185}
